Measurements collected from several papers.
Parts stem from different laboratories: compare values within a part only.

Sample 1
Target: Histone acetyltransferase KAT6A, both winged helices, GST fusion (KAT6A, Homo sapiens, UniProt Q92794, residues 1-181)
Technique: protein binding microarray
Form: double-stranded DNA, one strand shown
Matrix: in vitro
Concentration: not given
Setting: 8-mer, flanks averaged, mean of 2 arrays, mostly near background
Relative to: not given
Direction: higher = stronger binding
Quantity: E-score
Construct (chain): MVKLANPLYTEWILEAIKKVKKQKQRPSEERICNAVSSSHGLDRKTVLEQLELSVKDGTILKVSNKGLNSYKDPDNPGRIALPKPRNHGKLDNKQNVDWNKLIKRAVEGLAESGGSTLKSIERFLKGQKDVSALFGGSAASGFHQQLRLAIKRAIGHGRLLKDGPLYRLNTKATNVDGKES
ACGCCGAT: 0.271
AGGGTTGG: -0.21
ATGCGAAT: 0.157
GTATACAC: 0.109
ACGCGAAT: 0.104
CGCAACCG: 0.285

Sample 2
Target: RNA binding protein fox-1 homolog 2, RRM domain, GST-SBP tag (RBFOX2, Homo sapiens, UniProt O43251-10, residues 100-194)
Technique: RNA Bind-n-Seq
Form: RNA
Matrix: in vitro
Concentration: 365 nM
Setting: natural RNA segment, single round, ends assumed
Relative to: no-protein control
Direction: higher = stronger binding
Quantity: RBNS enrichment (R)
All sequences stand within: GGGAGUUCUACAGUCCGACGAUC … UGGAAUUCUCGGGUGCCAA
Construct (chain): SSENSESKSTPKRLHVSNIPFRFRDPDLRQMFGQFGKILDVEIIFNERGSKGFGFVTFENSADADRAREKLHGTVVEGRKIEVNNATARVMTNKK
UUAACUAAGGAGAGACAUACUGGUAUAUCAUUUUACUACAAGCUACAGAUAACCUGUUGAGCUUGUGCCUUGAUUGUUUUAACAACUAGUGCAAAUCAACCUGAUGAUUU: 0.378
GAACUUGUAGCUUGGACUUUAAGGUAGCAUGGCUCUAUUGCUGUCAAUUUACUGUUUCACUGCACAGCAAUCACAGCCAGUGAAUGUUACACACAUCUUGCUAGACUAGU: 0.51
UGGCAUAUGUUUAAGGUAACAAAAAGAUCAGGAGUUGCCUCUGGCCUCUAAAGUGCCAAGGGACCAAUCAUUGAUGUUCCAUGGAGCCAGUCAUGGAAAUCCCUGGAAGG: 0.465
GGGAUCAGCCCACUGACAGACCUUAAUCUUAAUUACUGCUGUGGCUAGAGAGUUUGAGGAUUGCUUUUUAAAAAAGACAGCAAACUUUUUUUUUUAUUUAAAAAAAGAUA: 0.707
GAGCAGCAGAGCAGCAGGACAUGGCCAACAAAGCGUGCUUUCUGAGGACGUGGAGAGUGGCAGUGACGAAGGUCAUUUGUUUUCAGGGAGGUAGGGUUUAAAGACCCCCA: 0.311
UUUGGAUUCCUAACCUUAAGUGAGCUGUAAACAAUGUGAAUGGAGCUCUGGCCAGUCACCUUUAACCCAGCAGCUUGGGUUCAGUGUCACCUACGGAUUAUUUCUCUUUC: 0.262
ACGGGGCUCACUCUGGCCCCCUAUUGUCUCCAAGGUCCCAUUUUCCCCCUGUGUUUUCACGCAGGUCAUAUUGUCAGUCCUACAAAAAUAAAAGGCUUCCAGAGGAGAGU: 0.418
UAUUGUUUGAGAAUAAUGUCUUUUUAUACCAGGAAAAUAGUUAUCCUGAAUGACGUUGAAAACUCCCCCUCCCCUUUAUUUUUUUUUAAUCAAUACAUGUGAAAGUAACA: 1.3

Sample 3
Target: Sal-like protein 4, full length isoform B (SALL4, Homo sapiens, UniProt Q9UJQ4-2, residues 1-616)
Technique: universal PBM
Form: double-stranded DNA, one strand shown
Matrix: in vitro
Concentration: not given
Setting: 8-mer, flanks averaged, mean of replicates
Direction: higher = stronger binding
Quantity: E-score
Residues (chain): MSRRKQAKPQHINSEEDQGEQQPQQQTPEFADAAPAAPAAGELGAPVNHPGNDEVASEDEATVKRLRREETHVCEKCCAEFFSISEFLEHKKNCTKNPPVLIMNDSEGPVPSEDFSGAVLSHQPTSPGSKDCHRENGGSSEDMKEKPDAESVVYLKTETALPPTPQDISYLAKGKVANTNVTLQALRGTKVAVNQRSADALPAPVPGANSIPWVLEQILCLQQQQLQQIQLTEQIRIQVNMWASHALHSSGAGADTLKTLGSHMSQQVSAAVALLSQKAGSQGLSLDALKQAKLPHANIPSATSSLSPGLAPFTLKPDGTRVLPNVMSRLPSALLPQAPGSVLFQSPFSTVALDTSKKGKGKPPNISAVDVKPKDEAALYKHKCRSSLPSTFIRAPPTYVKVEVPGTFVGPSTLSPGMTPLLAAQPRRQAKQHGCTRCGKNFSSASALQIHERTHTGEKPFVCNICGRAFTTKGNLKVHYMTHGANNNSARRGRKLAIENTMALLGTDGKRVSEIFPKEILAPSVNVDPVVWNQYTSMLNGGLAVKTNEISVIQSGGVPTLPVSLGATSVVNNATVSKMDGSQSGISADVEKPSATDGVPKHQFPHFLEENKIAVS
GCATTGAA: 0.0837
ATGGGGCC: -0.254
GGATTTTA: 0.151
ATTCGAAG: 0.0116
GCAATATA: 0.334

Mixed results
PhoQ, residues 284 288 289 292 302 303 TTCLQL — fold induction (PhoP, residues 12 14 15 18 19 QWHVF (Escherichia coli, UniProt P23836); Sort-seq, item: YFP reporter; E. coli; PhoQ-PhoP variant library, with: 10 µM Mg2+; relative to: high Mg2+ state, higher = stronger signaling): 4.48

Excerpt of the above (sample 2):
UUUGGAUUCCUAACCUUAAGUGAGCUGUAAACAAUGUGAAUGGAGCUCUGGCCAGUCACCUUUAACCCAGCAGCUUGGGUUCAGUGUCACCUACGGAUUAUUUCUCUUUC: 0.262
ACGGGGCUCACUCUGGCCCCCUAUUGUCUCCAAGGUCCCAUUUUCCCCCUGUGUUUUCACGCAGGUCAUAUUGUCAGUCCUACAAAAAUAAAAGGCUUCCAGAGGAGAGU: 0.418
UAUUGUUUGAGAAUAAUGUCUUUUUAUACCAGGAAAAUAGUUAUCCUGAAUGACGUUGAAAACUCCCCCUCCCCUUUAUUUUUUUUUAAUCAAUACAUGUGAAAGUAACA: 1.3
